Measured values from different studies.
Lines come from different studies, so protocols differ. ± marks the error that the study gave.

SMILES	cell line	test	conditions	scale	measurement	value
COc1cc(CNC(=O)C[C@H](C)CCC=C(C)C)ccc1OCc1cn(-c2ccc([N+](=O)[O-])cc2)nn1	IGROV-1 ovarian cancer cells	SRB	10 µM, 48 h		growth percent	78.8%
O=C(O)CCCOc1ccc(F)cc1-c1cc(-c2ccccc2C(F)(F)F)n(-c2ccccc2)n1	SH-SY5Y	co-immunoprecipitation	concentration not given, with: rotenone		VDAC1-FABP5 interaction	inhibited
N=C(N)NCCC[C@@H]1NC(=O)[C@H](CCCCN)NC(=O)[C@@H](Cc2ccc(O)cc2)NC(=O)[C@H](CC(=O)O)NC(=O)CNC1=O	U87	cell growth, MTT	48 h		GI50	63000 ± 2500 nM
CN(C)c1cc2ccccc2c(N)n1	LX-2	qPCR	concentration not given, with: TGF-β1 5 ng/mL for 12 h		IFN-γ mRNA level	increased
O=C1OCC2=C1C(c1cccc(Br)c1)C1=C(N2)C(=O)c2ccccc2C1=O (centres unmarked)	SK-LU-1 cells	annexin V/PI	0.08 µM, 24 h		total apoptotic cells	8.04%
C=C1C(=O)OC2C1CCC1(C)CC1CCC1(C)OC21 (centres unmarked)	TEX	CellROX Green flow cytometry	100 µM, 30 min	baseline: untreated	ROS level	2.6 fold
Cc1nn(-c2ccc(S(=O)(=O)N[C@H](CO)CC(C)C)cc2)c2nn3nnnc3nc12	HT-29	MitoTracker Red	2 µM, 24 h	baseline: untreated	mitochondrial membrane potential	78.8 ± 3.32%
COc1cc(CNC(=O)C[C@H](C)CCC=C(C)C)ccc1O	MOLT-4 leukaemia cells	SRB	10 µM, 48 h		growth percent	83.4%
C=CCc1ccc(O)c(-c2cc(CC=C)ccc2OCCCCCCCCCC[P+](c2ccccc2)(c2ccccc2)c2ccccc2)c1	UACC-62	autophagy, immunoblotting	0.5 µM, 48 h		LC3-II/LC3-I ratio	6.1
Cc1ccc(NC(=O)c2c(C)oc3ccc(O)cc23)cc1	L-363	Western blot	10 µM, 24 h		MYC protein level	inactive
CO[C@@H]1[C@@H](O[C@@H]2O[C@H](C)[C@@H](O[C@H]3C[C@@](C)(O)[C@@H](OC(=O)Nc4ccc(C)cc4)[C@H](C)O3)[C@H](N(C)C)[C@H]2O)[C@@H](CC=O)C[C@@H](C)[C@@H](O[C@H]2CC[C@H](N(C)C)[C@@H](C)O2)/C=C/C=C/C[C@@H](C)OC(=O)C[C@H]1O	GES-1 and HGC-27	cell growth, CCK-8	72 h	baseline: IC50 GES-1 over HGC-27	selectivity index	33.1
COc1cc(CNC(=O)C[C@H](C)CCC=C(C)C)ccc1OCc1cn(-c2ccccc2)nn1	MCF7 breast cancer cells	SRB	10 µM, 48 h		growth percent	80.6%
COc1ccc(/C=C/C2=[N+]3C(=C(CO)c4c(C)cc(/C=C/c5ccc(OC)cc5)n4[B-]3(C)C)C(C)=C2)cc1	RPE-1	resazurin	with: 645 nm light	baseline: dark over light IC50	phototoxicity index	70 ± 45
NC(=O)[C@@H](O)C[C@H]1CCc2sc3ncnc(O[C@H]4CC[C@H](N5CCOCC5)CC4)c3c21	human white blood cells		concentration not given, 1 h pretreatment, with: LPS 1 µg/mL or CpG 0.5 µM		TNF production	inhibited
CCC(=O)N(C)c1ccc(Cl)c(Cl)c1	primary mouse osteoclasts	osteoclast multinucleation, item: TRAP-positive cells	50 µM, 5 d, with: RANKL and M-CSF		inhibition	~50%
CC(=O)N[C@@H](CCCNC(=N)N)C(=O)N[C@@H](CCCNC(=N)N)C(=O)N[C@@H](CCCNC(=N)N)C(=O)N[C@@H](CCCNC(=N)N)C(=O)N[C@@H](CCCNC(=N)N)C(=O)N[C@@H](CCCNC(=N)N)C(=O)N[C@@H](CCCNC(=N)N)C(=O)N[C@@H](CCCNC(=N)N)C(=O)N[C@@H](CCCNC(=N)N)C(=O)N[C@@H](CCCNC(=N)N)C(=O)N[C@@H](CCCNC(=N)N)C(=O)N[C@@H](CSSCCC(=O)NCC(=O)N1CCC[C@H]1C(=O)N[C@@H](Cc1c[nH]cn1)C(=O)N[C@@H](C)C(=O)N[C@H](C(=O)N[C@@H](C)C(=O)N[C@H](C(=O)N[C@@H](C)C(=O)N[C@@H](C)C(=O)NCC(=O)N1CCC[C@H]1C(=O)N[C@@H](Cc1c[nH]cn1)C(=O)N[C@@H](CCC(=O)O)C(=O)N[C@@H](CCC(=O)O)C(N)=O)C(C)C)C(C)C)C(N)=O	HeLa, GFP-NFAT stably transfected	live-cell confocal microscopy	500 nM, 2 h, with: ionomycin, 10 min		NFAT nuclear translocation	no effect
COc1cc(CNC(=O)C[C@H](C)CCC=C(C)C)ccc1OCc1cn(-c2ccccc2F)nn1	786-0	SRB	10 µM, 48 h		growth	43.6%
C(=C/c1ccccc1)/c1ccccc1	MOLT-3	cell proliferation, CellTiter-Glo	24 h, lowest dose with significant inhibition	baseline: vehicle	lowest effective concentration	2 µM
O=Cc1c(O)ccc2ccccc12	HUVEC	RNA sequencing, item: ZNF365	75 µM, 24 h	baseline: DMSO	log2 fold change	4.15

SMILES	cell line	test	conditions	scale	measurement	value
COc1ccc(-c2cc(C(F)(F)F)nc(SCC(=O)N(C)c3ccccc3)n2)cc1OC	NG108-15	agonist, item: cAMP	25 µM	baseline: basal	basal activity increase	~20%
C=C(C)[C@@H]1CC[C@]2(C(=O)OCO/N=[N+](\[O-])N3CCCC3)CC[C@]3(C)[C@H](CC[C@@H]4[C@@]5(C)CC[C@H](OC(C)=O)C(C)(C)[C@@H]5CC[C@]43C)[C@@H]12	B16-F10	PI flow cytometry	1.0 µM		cells in G1 phase	52.1%
COc1ccc([C@@H]2CC(=O)c3c(O)cc(O[C@@H]4O[C@H](CO[C@@H]5O[C@@H](C)[C@H](O)[C@@H](O)[C@H]5O)[C@@H](O)[C@H](O)[C@H]4O)cc3O2)cc1O	A549	trypan blue exclusion	50 µg/mL, 48 h		cell count	18300 ± 522
CO[C@@H]1[C@@H](O[C@@H]2O[C@H](C)[C@@H](O[C@H]3C[C@@](C)(O)[C@@H](OC(=O)/C=C/c4ccc(C(F)(F)F)cc4)[C@H](C)O3)[C@H](N(C)C)[C@H]2O)[C@@H](CC=O)C[C@@H](C)[C@@H](O[C@H]2CC[C@H](N(C)C)[C@@H](C)O2)/C=C/C=C/C[C@@H](C)OC(=O)C[C@H]1O	GES-1 and HGC-27	cell growth, CCK-8	72 h	baseline: IC50 GES-1 over HGC-27	selectivity index	2.44
COc1cc(CNC(=O)C[C@H](C)CCC=C(C)C)ccc1OCc1cn(-c2ccccc2[N+](=O)[O-])nn1	MOLT-4 leukaemia cells	SRB	10 µM, 48 h		growth percent	20.7%
Cc1c(C)n(-c2c(C(C)C)cccc2C(C)C)c(=[Se])n1-c1c(C(C)C)cccc1C(C)C.[Cl][Ag]	LoVo MDR	MTT		baseline: LoVo MDR over LoVo	resistance factor	0.4
Cc1cc2[nH]c(C(=O)Nc3ccccc3C)c(CN3CCOCC3)c2s1	HEK293	cell growth or viability	100 µM		inhibition	< 50%
CN(C)c1cccc2c(S(=O)(=O)NCCCCCC(=O)NO)cccc12	PC-3	propidium iodide flow cytometry	1.54 µM		cells in G1 phase	64.3%
C#CCN(CC(=O)O[C@H]1[C@H](C)O[C@@H](O[C@H]2[C@H](N(C)C)[C@@H](O)[C@H](O[C@H]3[C@@H](CC=O)C[C@@H](C)[C@@H](O[C@H]4CC[C@H](N(C)C)[C@@H](C)O4)/C=C/C=C/C[C@@H](C)OC(=O)C[C@@H](O)[C@@H]3OC)O[C@@H]2C)C[C@@]1(C)O)C(=O)c1ccc(C(F)(F)F)cc1	GES-1 and HGC-27	cell growth, CCK-8	72 h	baseline: IC50 GES-1 over HGC-27	selectivity index	10.3
COc1ccc(CC2COC(=O)C2Cc2ccc3c(c2)OCO3)cc1OC (mixture of isomers)	A2780cis	item: multi-caspase	3.25 µM, 72 h	baseline: untreated	caspase-positive cells	increased
O=S(=O)(CCC(F)(F)F)Nc1ccc(Oc2ncccc2-c2ccnc(N[C@H]3CCCNC3)n2)c2ccccc12	INS1 cells with Dox-inducible IRE1α	IRE1α-induced decrease, RNA-Seq	20 µM, with: 5 ng/mL doxycycline		secretome transcript level	inhibited
CCC(=C(c1ccc(Cl)cc1)c1ccc(OCCCN(C)C)cc1)c1ccc(OC)cc1	SR	cell growth or viability			GI50	980 nM
O=C1CCC(N2C(=O)c3ccc(N4CCC(C(=O)N5CCC(CCN6CCC(CNC(=O)c7cccc(-c8noc(C(F)(F)F)n8)c7)(c7nc(-c8ccccc8)cs7)CC6)CC5)CC4)cc3C2=O)C(=O)N1 (centres unmarked)	DHL6	flow cytometry	1 µM, 48 h		sub-G0 cells	99.3%
CC(=C(c1ccc(O)cc1)c1ccc(Cl)cc1)c1ccc(Cl)cc1	A549/ATCC	NCI five-dose screen	non-small-cell lung cancer		GI50	780 nM
Cc1ccc(C(C)C)cc1.[Cl-].[Cl][Ru+].[Ru+].c1ccc(-c2cn(CCCCOc3ccccc3-c3nc4ccccc4s3)nn2)nc1	MCF7	PI flow cytometry, item: sub-G0 phase	4 µM, 24 h		cells in phase	0.16%
O=C(c1ccc2ccccc2c1)c1cn(-c2ccccc2)nc1C1=Nn2c(Cc3nnc4n3N=C(c3nn(-c5ccccc5)cc3C(=O)c3ccc5ccccc5c3)CS4)nnc2SC1	MCF7 cells	annexin V/PI flow cytometry	IC50, 48 h		early apoptotic cells	19.8%
COc1cc(CNC(=O)C[C@H](C)CCC=C(C)C)ccc1OCc1cn(-c2ccc(Cl)cc2Cl)nn1	IGROV-1 ovarian cancer cells	SRB	10 µM, 48 h		growth percent	72.3%
Cc1ccc([N+](=O)[O-])cc1S(=O)(=O)N(C)/N=C/c1cnc2ccc(Br)cn12	HuT78	PI3K signalling, NanoString, pathway analysis	50 nM, 10 h	direction not given	activation z-score	-3.11
Cc1c(C)c(C)[c-](C)c1C.O=C1c2cccc[n+]2[Ir]([Cl])[N]1CCCCCCCCCC[P+](c1ccccc1)(c1ccccc1)c1ccccc1.[Br-]	SH-SY5Y	SRB	5 µM, 3 h, with: aldehyde Ia 20 µM, 24 h	baseline: aldehyde Ia alone	viability fold enhancement	2.1 fold

Excerpt of the above:
SMILES	cell line	test	conditions	scale	measurement	value
CCC(=O)N(C)c1ccc(Cl)c(Cl)c1	primary mouse osteoclasts	osteoclast multinucleation, item: TRAP-positive cells	50 µM, 5 d, with: RANKL and M-CSF		inhibition	~50%
CC(=O)N[C@@H](CCCNC(=N)N)C(=O)N[C@@H](CCCNC(=N)N)C(=O)N[C@@H](CCCNC(=N)N)C(=O)N[C@@H](CCCNC(=N)N)C(=O)N[C@@H](CCCNC(=N)N)C(=O)N[C@@H](CCCNC(=N)N)C(=O)N[C@@H](CCCNC(=N)N)C(=O)N[C@@H](CCCNC(=N)N)C(=O)N[C@@H](CCCNC(=N)N)C(=O)N[C@@H](CCCNC(=N)N)C(=O)N[C@@H](CCCNC(=N)N)C(=O)N[C@@H](CSSCCC(=O)NCC(=O)N1CCC[C@H]1C(=O)N[C@@H](Cc1c[nH]cn1)C(=O)N[C@@H](C)C(=O)N[C@H](C(=O)N[C@@H](C)C(=O)N[C@H](C(=O)N[C@@H](C)C(=O)N[C@@H](C)C(=O)NCC(=O)N1CCC[C@H]1C(=O)N[C@@H](Cc1c[nH]cn1)C(=O)N[C@@H](CCC(=O)O)C(=O)N[C@@H](CCC(=O)O)C(N)=O)C(C)C)C(C)C)C(N)=O	HeLa, GFP-NFAT stably transfected	live-cell confocal microscopy	500 nM, 2 h, with: ionomycin, 10 min		NFAT nuclear translocation	no effect
COc1cc(CNC(=O)C[C@H](C)CCC=C(C)C)ccc1OCc1cn(-c2ccccc2F)nn1	786-0	SRB	10 µM, 48 h		growth	43.6%
